Measured values pooled from the literature.
Every numbered part comes from another study and shows a few of its results, in no order. Positions count from the first letter of the parent shown.

Block 1
Target: Phosphate system positive regulatory protein PHO4, full length, GST-tagged (PHO4, Saccharomyces cerevisiae, UniProt P07270, residues 1-312)
Method: competition protein-binding microarray
Form: double-stranded DNA, one strand shown
Sample: in vitro
Tested at: 2 µM
Notes: whole 60-bp probe, lowest competitor level
Added: Cbf1 competitor, 0.05 µM
Direction: higher = stronger binding
Constant ends, left off below: … GTCTTGATTCGCTTGACGCTGCTG
Residues (chain): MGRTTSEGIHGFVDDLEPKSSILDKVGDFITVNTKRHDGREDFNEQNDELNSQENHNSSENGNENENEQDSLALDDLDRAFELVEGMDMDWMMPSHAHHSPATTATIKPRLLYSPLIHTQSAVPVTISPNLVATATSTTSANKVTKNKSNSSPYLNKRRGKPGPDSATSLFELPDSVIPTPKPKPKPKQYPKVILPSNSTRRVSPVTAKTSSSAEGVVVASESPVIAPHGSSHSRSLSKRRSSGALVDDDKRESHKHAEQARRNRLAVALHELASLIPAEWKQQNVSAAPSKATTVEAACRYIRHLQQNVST
With `AGTCTCATCTTCTTTCCCGTGCCGACGGGTTTAGTA` the fluorescence intensity was 7380 a.u.
`GTTACCCGGTCGAGTCACGTGCGGATGCGGAGGGCA` gave a fluorescence intensity of 18100 a.u.
For `CATACCCAACCTTGAGCGGTGGGTGAAGATATTTGT`, the fluorescence intensity was 3720 a.u.
`CGGATCAGTTTACATCATGTGTGCCCCCACCATGAT` gave a fluorescence intensity of 8220 a.u.
With `TCCTTTTTTGCGAGTCACGTTCCTGCAGCGCGTTTC` the fluorescence intensity was 12400 a.u.
`AAAGCGGTAATTTGGCAAGTGGGTGCAGATATCTAT` has a fluorescence intensity of 4270 a.u.
`AGAGGGTAGCTTGCTGACATGCAGACCTCTCCCCGG` has a fluorescence intensity of 5270 a.u.
For `GAAGAGGAGTCTTTGCACGTGTTTCAGTATGCTAAT`, the fluorescence intensity was 20600 a.u.
`CGTAAAAGAGAAAAGATCGTGCTTTCATCAAGCGCT` gave a fluorescence intensity of 8740 a.u.
`CTAACGAAGGTTTGGTTTGTGGGTGACAAGCCAAGT` has a fluorescence intensity of 3790 a.u.
For `GTCTTGTCTCATTGTCACGAAACTTTCCCCACTTCA`, the fluorescence intensity was 4020 a.u.
With `CCAGGGGAGTAGTGAACCGTGCCAGCACCTCGGGTA` the fluorescence intensity was 6660 a.u.

Block 2
Target: CCNA2, cyclin fold, Cln2 fusion (human)
Method: yeast growth competition, sequencing
Sample: yeast
Notes: strong parent motif
Relative to: not given
Direction: higher = stronger binding
Starting sequence: REPIN1 docking peptide (human); QSFRGWVALVLHL
`QSFRGWVAAVLHL [L9A]` — result for “normalised enrichment score”: 1.25.
For `ASFRGWVALVLHL [Q1A]`, “normalised enrichment score” read 1.36.
For `QAFRGWVALVLHL [S2A]`, “normalised enrichment score” read 1.4.
Under “normalised enrichment score”, `QSFRGWVALALHL [V10A]` is recorded as 0.979.
Under “normalised enrichment score”, `QSFRGWVALVLHA [L13A]` is recorded as 1.83.
`QSARGWVALVLHL [F3A]` — result for “normalised enrichment score”: 1.8.

Block 3
Target: ABI1, truncated, D143A, DHFR fusion (Arabidopsis thaliana)
Method: DHFR PCA, deep sequencing
Sample: yeast
Notes: methotrexate growth selection, single substitutions
Added: (+)-ABA 0.032 µM
Relative to: wild-type fitted maximum
Direction: higher = stronger binding
Starting sequence: PYL1, truncated, DHFR fusion (Arabidopsis thaliana); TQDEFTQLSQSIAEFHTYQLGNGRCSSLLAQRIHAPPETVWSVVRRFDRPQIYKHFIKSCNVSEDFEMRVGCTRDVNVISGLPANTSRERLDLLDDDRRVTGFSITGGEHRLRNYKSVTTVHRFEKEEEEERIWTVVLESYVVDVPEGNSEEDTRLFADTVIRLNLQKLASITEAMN
Under “relative binding score”, `A84I` is recorded as 31.4%.
For `T120Y`, “relative binding score” read -1.93%.
Under “relative binding score”, `V142D` is recorded as 2.19%.
`K54M` — result for “relative binding score”: -7.76%.
`F5T`: “relative binding score” 4.67%.
Under “relative binding score”, `R74W` is recorded as -2.49%.
`E14I`: “relative binding score” -6.18%.
Under “relative binding score”, `T135S` is recorded as 12.8%.
`P146E`: “relative binding score” 2.27%.
For `T39Q`, “relative binding score” read 14.7%.
Under “relative binding score”, `R132C` is recorded as 36.1%.
Under “relative binding score”, `E14L` is recorded as -0.255%.
For `L82P`, “relative binding score” read -0.121%.

Mixed results
For `PhoQ, residues 284 288 289 292 302 303 SASVAL`, the fold induction was 10.4 (PhoP, residues 12 14 15 18 19 VHSCL (Escherichia coli, UniProt P23836); Sort-seq, item: YFP reporter; E. coli; PhoQ-PhoP variant library, added: 10 µM Mg2+; relative to: high Mg2+ state, higher = stronger signaling).

For quick reference, copied from above (block 3):
For `T120Y`, “relative binding score” read -1.93%.
For `T39Q`, “relative binding score” read 14.7%.
Under “relative binding score”, `R132C` is recorded as 36.1%.
